Published values from different studies.
Parts stem from different laboratories: compare values within a part only.
Sequence of UniProt P41595 (whole entry, looked up): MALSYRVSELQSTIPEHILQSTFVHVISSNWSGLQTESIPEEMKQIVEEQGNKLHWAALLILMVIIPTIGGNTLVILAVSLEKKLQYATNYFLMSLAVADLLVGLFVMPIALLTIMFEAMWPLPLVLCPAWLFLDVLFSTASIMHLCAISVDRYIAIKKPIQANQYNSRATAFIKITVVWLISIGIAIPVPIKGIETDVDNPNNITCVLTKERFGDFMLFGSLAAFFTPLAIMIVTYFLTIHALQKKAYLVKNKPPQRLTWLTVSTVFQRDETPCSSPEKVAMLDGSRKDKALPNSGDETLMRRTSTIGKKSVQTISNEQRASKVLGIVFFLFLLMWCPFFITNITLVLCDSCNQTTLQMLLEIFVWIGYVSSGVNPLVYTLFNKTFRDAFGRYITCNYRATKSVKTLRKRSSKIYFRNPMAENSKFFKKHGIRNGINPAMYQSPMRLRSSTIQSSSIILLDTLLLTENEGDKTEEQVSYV
Sequence of UniProt P18825 (whole entry, looked up): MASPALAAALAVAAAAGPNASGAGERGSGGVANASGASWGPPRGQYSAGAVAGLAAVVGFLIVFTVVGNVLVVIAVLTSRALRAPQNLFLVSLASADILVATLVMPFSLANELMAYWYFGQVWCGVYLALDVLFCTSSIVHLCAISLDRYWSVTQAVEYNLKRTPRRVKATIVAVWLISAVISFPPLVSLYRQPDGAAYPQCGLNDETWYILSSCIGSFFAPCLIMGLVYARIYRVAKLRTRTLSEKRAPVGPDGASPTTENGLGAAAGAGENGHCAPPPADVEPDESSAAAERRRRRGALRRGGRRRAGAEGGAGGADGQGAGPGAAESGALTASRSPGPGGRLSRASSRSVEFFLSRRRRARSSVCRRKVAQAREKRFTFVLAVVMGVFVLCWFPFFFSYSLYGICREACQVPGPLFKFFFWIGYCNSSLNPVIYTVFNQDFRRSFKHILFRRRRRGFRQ

Block 1
Host: mouse
Sample: microsomes or S9
Concentration: 2 µM
Time: 0.5 h
| Structure (SMILES) | remaining compound |
| --- | --- |
| COC(=O)[C@@H]1C[C@H](C(=O)OC)CN(c2ccnc(N3C[C@H](C(=O)OC)C[C@H](C(=O)OC)C3)n2)C1 | 0.404% |
| COC(=O)Nc1nc2cc(C(=O)c3ccccc3C(=O)OC(C)C)ccc2[nH]1 | 39.1% |
| COc1cccc(Nc2nnc(SCC(=O)OC(C)(C)C)s2)c1 | 0% |
| O=C(CNS(=O)(=O)c1cc(-c2noc(C3CCC3)n2)cs1)N1CCN(c2ccccc2)CC1 | 8.15% |
| Cc1cc(C(=O)O)nn1-c1ccc(S(C)(=O)=O)cc1 | 97.7% |
| COc1cc(=O)[nH]cc1C(=O)N1CCC[C@H](CN2CCOCC2)C1 | 96.2% |
| COc1ccc(N2C(=O)/C(=C\NN(C)C)c3ccccc3C2=O)cc1 | 49.7% |
| COc1cccc2c(C(C(=O)O)N3CCN(C4=Nc5ccccc5Oc5ccccc54)CC3)c[nH]c12 (centres unmarked) | 74.2% |
| CC(C)(C)/N=c1\[nH]c(-c2ccccc2O)nc2ccccc12 | 67.5% |
| COC(=O)C1(NC(=O)c2ccc(CN3CC(C)OC(C)C3)cc2)CCS(=O)(=O)CC1 (centres unmarked) | 98.1% |
| Cc1nn(C)cc1-c1c2c(=O)[nH]n(C(C)C)c2nc2[nH]c(=O)n(C)c12 | > 100% |
| O=S1(=O)N=C(Nc2cccc3[nH]ccc23)c2ccccc21 | 49% |
| CC1CCc2cc(F)ccc2N1S(=O)(=O)c1ccc(S(=O)(=O)NC2CCCCC2)cc1 (centres unmarked) | 90.5% |

Block 2
Target: Cyclin-dependent kinase 3, with cyclin E (CDK3, Homo sapiens, UniProt Q00526)
Sequence of UniProt Q00526 (whole entry, looked up): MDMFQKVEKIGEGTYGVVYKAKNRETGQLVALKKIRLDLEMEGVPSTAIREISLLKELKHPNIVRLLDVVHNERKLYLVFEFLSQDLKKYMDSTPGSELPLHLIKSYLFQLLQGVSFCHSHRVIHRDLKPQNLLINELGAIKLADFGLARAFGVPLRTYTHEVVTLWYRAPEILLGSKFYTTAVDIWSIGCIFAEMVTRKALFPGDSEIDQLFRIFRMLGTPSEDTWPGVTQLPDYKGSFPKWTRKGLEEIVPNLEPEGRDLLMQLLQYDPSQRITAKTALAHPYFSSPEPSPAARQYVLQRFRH
Observed: enzyme activity
Action: inhibitor
Concentration: 0.5 µM
Baseline: control
| SMILES | remaining activity |
| --- | --- |
| N#Cc1cnc2cnc(NCc3cccnc3)cc2c1Nc1ccc(F)c(Cl)c1 | 95.6% |
| Cc1ccc(S(=O)(=O)/C=C/C#N)cc1 | 99.7% |
| O=Nc1c(-c2c(O)[nH]c3cc(Br)ccc23)[nH]c2ccccc12 | 25.2% |
| CCCNC(=O)Nc1ccc(Oc2ncnc3cc(OC)c(OC)cc23)cc1Cl | 94% |
| O=C(c1cc2cc(O)ccc2[nH]1)c1cc2cc(O)ccc2[nH]1 | 85.2% |
| O=C1NC(=O)c2c1c1c3ccccc3[nH]c1n1cncc21 | 76.7% |
| c1ccc2c(-c3ccncc3)c[nH]c2c1 | 98.2% |
| O=C1Cc2c([nH]c3ccc(Br)cc23)-c2ccccc2N1 | 81.7% |
| O=C1Nc2ccc(Br)cc2/C1=C/c1cc2c([nH]1)CCCC2 | 93.2% |
| c1ccc(-c2n[nH]c3c2oc2ccccc23)cc1 | 90% |
| COc1ccc2c(c1)c(C1=C(c3c[nH]c4ccccc34)C(=O)NC1=O)cn2CCCN(C)C | 78.8% |
| COc1cccc(-c2cc(=O)c3ccccc3o2)c1N | 109% |
| CN1CCN(c2ccc3nc(-c4c(N)c5c(F)cccc5[nH]c4=O)[nH]c3c2)CC1 | 92.3% |
| O=c1cc(N2CCOCC2)oc2c(-c3ccccc3)cccc12 | 89.6% |
| CCCCc1c(-c2ccc(OC)cc2)[nH]c2nccnc12 | 83.8% |
| Cc1cc(Nc2cc(N3CCN(C)CC3)nc(Sc3ccc(NC(=O)C4CC4)cc3)n2)[nH]n1 | 95.3% |
| O=C1Nc2ccccc2/C1=C\c1c(Cl)[nH]c2ccccc12 | 94.1% |
| O=C1NC(=O)c2c1c1c3ccccc3[nH]c1c1[nH]c3cc(Br)ccc3c21 | 88.1% |
| CN(C)S(=O)(=O)c1ccc2c(c1)/C(=C/c1cc3c([nH]1)CCCC3)C(=O)N2 | 96.9% |

Block 3
Target: Bromodomain-containing protein 4, BD1 (BRD4, Homo sapiens, UniProt O60885)
Concentration: 50 µM
| SMILES | inhibition [%] |
| --- | --- |
| Cc1c(OCC(F)(F)F)ccnc1C[S+]([O-])c1nc2ccccc2[nH]1 (centres unmarked) | 1.4 |
| Cn1cc(C2=C(c3ccc(Cl)cc3Cl)C(=O)NC2=O)c2ccccc21 | 31.2 |
| C#Cc1cccc(Nc2ncnc3cc4c(cc23)OCCOCCOCCO4)c1 | 1.05 |
| CNC(=O)c1cc(Oc2ccc(NC(=O)Nc3cc(C(C)(C)C)nn3-c3ccc4ncccc4c3)c(F)c2)ccn1 | 24.1 |
| CCn1c(=O)c(-c2cc[nH]n2)cc2c(C)nc(N)nc21 | 10.2 |
| CN1CCN(CCOc2cc(OC3CCOCC3)c3c(Nc4c(Cl)ccc5c4OCO5)ncnc3c2)CC1 | 16.1 |
| Oc1c2ccccc2c2c3c(cccc13)N=N2 | 7.6 |

Further values, each from its own experiment
Observed: binding
Method: radioligand binding
| Structure (SMILES) | target | conditions | measurement | value |
| --- | --- | --- | --- | --- |
| CC(=O)c1c(NS(C)(=O)=O)c2cc(-c3ccc(Cl)cc3)c(-c3ccc(Cl)cc3Cl)nc2n(C)c1=O | ADRA2C (Homo sapiens, UniProt P18825) |  | Ki | > 10 µM |
| O=C(Nc1ccc(-n2nc(-c3cccnc3)cc2C(F)(F)F)cn1)c1ccc(-c2ccccc2)c(F)c1 | HTR2B (Homo sapiens, UniProt P41595) | 10 µM | inhibition | 9.91% |
